Measured values pooled from the literature.
A part holds a random share of what one study measured. Substitutions count along the parent as printed.
Sequence of UniProt P17106 (whole entry, looked up): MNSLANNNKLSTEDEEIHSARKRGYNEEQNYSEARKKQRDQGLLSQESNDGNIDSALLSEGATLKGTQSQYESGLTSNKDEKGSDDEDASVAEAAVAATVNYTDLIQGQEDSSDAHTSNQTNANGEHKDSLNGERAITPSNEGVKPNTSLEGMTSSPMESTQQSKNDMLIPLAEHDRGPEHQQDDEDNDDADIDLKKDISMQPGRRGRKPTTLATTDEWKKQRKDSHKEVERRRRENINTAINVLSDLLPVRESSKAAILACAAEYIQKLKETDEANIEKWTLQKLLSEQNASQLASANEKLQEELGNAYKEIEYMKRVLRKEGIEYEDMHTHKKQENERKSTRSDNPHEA

Set 1
Target: tungstate, free oxyanion
Method: microfluidic competitive inhibition
Sample: in vitro, cell-free expressed
Concentration: not given
Setting: derived from inhibition constants, unchanged parent 2230 nM
Reading: lower = stronger binding
Parent: PafA, mature enzyme, eGFP fusion (Elizabethkingia meningoseptica, UniProt Q9KJX5); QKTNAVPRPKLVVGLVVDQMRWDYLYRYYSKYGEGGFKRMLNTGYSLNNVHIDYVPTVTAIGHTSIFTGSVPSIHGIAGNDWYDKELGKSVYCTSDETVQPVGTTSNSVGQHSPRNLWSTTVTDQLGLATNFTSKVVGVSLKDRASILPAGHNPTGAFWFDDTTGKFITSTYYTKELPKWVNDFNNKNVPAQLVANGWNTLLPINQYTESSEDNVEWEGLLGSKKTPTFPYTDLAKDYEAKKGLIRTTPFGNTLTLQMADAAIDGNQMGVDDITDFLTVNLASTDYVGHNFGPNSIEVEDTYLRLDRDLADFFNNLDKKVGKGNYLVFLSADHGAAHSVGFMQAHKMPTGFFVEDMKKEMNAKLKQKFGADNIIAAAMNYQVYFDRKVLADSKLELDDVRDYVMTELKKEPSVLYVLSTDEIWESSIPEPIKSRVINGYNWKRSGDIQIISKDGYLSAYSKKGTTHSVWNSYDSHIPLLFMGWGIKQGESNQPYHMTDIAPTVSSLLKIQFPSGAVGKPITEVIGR
| Substitution | oxyanion analog dissociation constant |
| --- | --- |
| G127A | 2.09 µM |
| V189A | 2.57 µM |
| H289V | 29.2 µM |
| G219V | 2.43 µM |
| L316V | 2.44 µM |
| L326V | 2.31 µM |
| A157G | 2.12 µM |
| S46V | 2.58 µM |

Set 2
Target: CCND1, cyclin fold, Cln2 fusion (human)
Method: yeast growth competition, sequencing
Sample: yeast
Setting: weak parent motif
Reference: not given
Reading: higher = stronger binding
Parent: viral docking peptide; TSVRRALFTGGSD
| Substitution | normalised enrichment score |
| --- | --- |
| TSVRRALFTYGSD [G10Y] | 0.399 |
| TSVRRALFTGYSD [G11Y] | 0.000192 |
| TSVRRALNTGGSD [F8N] | 0.0326 |
| TSVRIALFTGGSD [R5I] | 0.359 |
| TSVRRALFTKGSD [G10K] | 0.275 |
| TSGRRALFTGGSD [V3G] | -0.131 |
| TSVDRALFTGGSD [R4D] | -0.033 |
| TSVRRALFTGGLD [S12L] | 0.117 |

Other studies, line by line
| Molecule | tested on | test | system | setting | scale | quantity | value |
| --- | --- | --- | --- | --- | --- | --- | --- |
| O=C([O-])CN(CCN(CC(=O)[O-])CC(=O)O)CC(=O)[O-].[Na+].[Na+].[Na+] | Vesicular stomatitis virus | pseudovirus infection |  | concentration not given, VSV-G control pseudotype |  | GFP signal | 115% |
| CTATAAAATGGTAATGGCACGTGATAGTAGTGGTTCGTCTTGATTCGCTTGACGCTGCTG | Centromere-binding protein 1, full length, N-terminal tag (CBF1, Saccharomyces cerevisiae, UniProt P17106, residues 1-351) | protein-binding microarray | double-stranded DNA, one strand shown, in vitro | 0.8 µM, whole 60-bp probe, no competitor | higher = stronger binding | fluorescence intensity | 10500 a.u. |
| COc1cc(-c2cn(C3CCc4c(F)cccc4N(CC(F)(F)F)C3=O)nn2)ccc1-n1cnc(C)c1 (stereo not shown) | SLC6A4 (Homo sapiens, UniProt P31645) | ligand displacement |  | 10 µM |  | inhibition | 88.6% |

For quick reference, copied from above (other studies, line by line):
| Molecule | tested on | test | system | setting | scale | quantity | value |
| --- | --- | --- | --- | --- | --- | --- | --- |
| O=C([O-])CN(CCN(CC(=O)[O-])CC(=O)O)CC(=O)[O-].[Na+].[Na+].[Na+] | Vesicular stomatitis virus | pseudovirus infection |  | concentration not given, VSV-G control pseudotype |  | GFP signal | 115% |
| CTATAAAATGGTAATGGCACGTGATAGTAGTGGTTCGTCTTGATTCGCTTGACGCTGCTG | Centromere-binding protein 1, full length, N-terminal tag (CBF1, Saccharomyces cerevisiae, UniProt P17106, residues 1-351) | protein-binding microarray | double-stranded DNA, one strand shown, in vitro | 0.8 µM, whole 60-bp probe, no competitor | higher = stronger binding | fluorescence intensity | 10500 a.u. |
